# Measurements of several laboratories.
# Parts stem from different laboratories: compare values within a part only.

# Study 1
# Target: RING finger protein unkempt homolog, zinc fingers 1-6, SBP tag (UNK, Homo sapiens, UniProt Q9C0B0, residues 30-357)
# Chain of UniProt Q9C0B0 (30-357, looked up): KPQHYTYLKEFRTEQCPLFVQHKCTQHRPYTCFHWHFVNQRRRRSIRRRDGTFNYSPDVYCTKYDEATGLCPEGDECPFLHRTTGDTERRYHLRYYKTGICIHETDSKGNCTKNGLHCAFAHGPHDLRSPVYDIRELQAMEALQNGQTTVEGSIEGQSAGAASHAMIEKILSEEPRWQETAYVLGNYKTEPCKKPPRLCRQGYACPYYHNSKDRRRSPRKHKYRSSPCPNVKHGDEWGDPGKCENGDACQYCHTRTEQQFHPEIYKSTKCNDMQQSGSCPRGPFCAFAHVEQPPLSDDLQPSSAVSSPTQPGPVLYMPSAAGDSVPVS
# Method: RNA Bind-n-Seq
# Form: RNA
# Matrix: in vitro
# Concentration: 100 nM
# Setting: RNA with constant flanks, vertebrate orthologous sites, ends assumed
# Baseline: input RNA pool
# Direction: higher = stronger binding
# All sequences stand within: GGGAGUUCUACAGUCCGACGAUC … CAACAGAGGAUUGAGCAUCA
Oligonucleotide,bound/input enrichment [ratio]
GGAGCUUGUGUUUGGCUGCGCCUGCGUCACAAGCUGCUGCAACCAGAAUAAAGAGUUUCCGAGCCUGCGUCUCGCUUGGGUGCAGGGAGUGGGCUUUGCGCACAGGGCUCGGCGCUGACG,0.352
CAUUGUACCCUGCUGUAUAAUAAACAAUCUUAGACAUUUAUCAACUGUUGAUACAAAUGUUAGUCCCUAACCACUUUUUAUAUGUUUUAAAUUUUUGAAAUUCAAGUGUACCUGCCAUAA,2.07
UAUGUGUUGGUGCAGCGUGCUCUGUACCAGUGUUCAUCAUCCCUUCAUACCAACUGUCCCUAGUUAUAGGAAUUUAAUAUUUUUAAAAGUUUUACAUUGCUGUAUAUUCAAAGAUUUGUU,1.03
AAAUUUAUUUCAUGCCCUGGACUCCCUAUCGUACUGAUACUUUAAUAGAAUAUGCUUCGUUAGAAGAUUUCCAAAACAGUCGCCAAACAACGACAUAUAAACUUCCAAAUCGAGUAGAUG,0.797
UAGUACUUAAGCCAACAACAGUUCUAAAAUGCUAUUUAUUUGUGUCUGUAAGAUUGUACAUAUACUACCAACCUCAUACUGUUGUGGAUUAUUUUCUCACAAAUUUGGGUUUGUUUUUUU,0.482
AAGUCGGUGGUUGUACAUUAUUUCAUUUAGAAAAUAUGAAAACUCAUUUUGUUUUGAAGAUAGGUAUUAAACUGAAAUAGCUAUUACGUUCUUGAAAAAUGGGGCAGGUGUGCCCUUCCC,0.32
UGUACUUGGAAAAAAAUCAUCUUUAGUUUUAAACUAGUCAUGGUGAUACCUAUUCUGUGCUAGUGGAAUCAUUUGCUCUUACCUUUUAAACUAUCUCCUCUGUCUGAUAUCUGAAACCAG,0.664
CUCUAUGGGCCUCGCAGAGUUGAAAUAAUGGAAGAGGAAAGUGAACAGUAAUCUUCAUUUUAGUAUUUAUGUUUAGGUGUGAAAUAAAUGUUAUUUGUUGAUCAUUUCUAUAAUCCAGAG,0.868

# Study 2
# Target: Ras GTPase-activating protein-binding protein 1, full length (G3BP1, Homo sapiens, UniProt Q13283)
# Chain of UniProt Q13283 (whole entry, looked up): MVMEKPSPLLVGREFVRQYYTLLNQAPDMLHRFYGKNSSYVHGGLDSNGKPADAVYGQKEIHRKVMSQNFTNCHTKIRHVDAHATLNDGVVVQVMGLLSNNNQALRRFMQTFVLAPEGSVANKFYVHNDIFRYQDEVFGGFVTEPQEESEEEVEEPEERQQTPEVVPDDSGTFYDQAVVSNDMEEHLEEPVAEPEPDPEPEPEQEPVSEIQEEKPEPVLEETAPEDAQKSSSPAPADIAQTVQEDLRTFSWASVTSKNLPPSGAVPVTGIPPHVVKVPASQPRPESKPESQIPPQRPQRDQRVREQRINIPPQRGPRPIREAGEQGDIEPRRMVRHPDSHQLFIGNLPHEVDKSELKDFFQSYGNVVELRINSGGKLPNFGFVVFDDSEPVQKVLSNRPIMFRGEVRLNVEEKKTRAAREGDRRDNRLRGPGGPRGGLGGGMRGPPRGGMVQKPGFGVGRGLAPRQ
# Method: RNA Bind-n-Seq
# Form: RNA
# Matrix: in vitro
# Concentration: 200 nM
# Setting: whole 134-nt RNA, ends assumed
# Together with: 150 mM LiCl
# Baseline: input library
# Direction: higher = stronger binding
# Library: 7-deaza-guanosine replaces G
# All sequences stand within: GGGAGUUCUACAGUCCGACGAUC … UGGAAUUCUCGGGUGUCAAGG
Oligonucleotide,log2 enrichment
CAAGUCCUGUGCUACACAUCGUAUGUACCGAAUCGGGGUUUGGUUUGGGUUUGGGGAAAGUAUUAUGUUACGCCGUUCGGAUCUGCACUU,-0.842
UCAAGUCCUGUGCUACACAUCGUAUGUACCGAAUCGGAAAAAGGUGGAAAAAGGAAAGUAUUAUGUUACGCCGUUCGGAUCUGCACUUCC,-0.285
UGGCCCUGGCGGCAUGCGGGGAGGAAGAGGUGGCCUCAUGGAUCGUGGUGGUCCCGGUGGAAUGUUCAGAGGUGGCCGUGGUGGAGACAG,0.272
ACAGAGGGUUUGGUGGACGUUAUUCUCUAUCAUCAACCCGAUGACAAAAAGAAGAAUCGGGGGUUCUGCUUCCUUGAAUAUGAGGAUCAC,-2.5
UUUGGAGAAGGAACCCCACUCUCCAGCUGACCAGCCUGAACAACAGGCAGAAUCCACUUUGACAUCAGCUGAGACUAGGGGAAGCAAGAA,-0.126
AAGUCCUGUGCUACACAUCGUAUGUACCGAAUCGGGGUGGGGAGGGGUUUUUGGGGAAAGUAUUAUGUUACGCCGUUCGGAUCUGCACUU,0.0908
AUGGACUUGCACAUGAUGAACUGUGAACUUCUAGCCACAUGUAGUGCCCUUGGGUACUUGGAGGGAGACACUUACCAUAAGGAACCAGAU,-1.12
CAAGUCCUGUGCUACACAUCGUAUGUACCGAAUCGGGGUGGGGAAAGGGGUGGGGAAAGUAUUAUGUUACGCCGUUCGGAUCUGCACUUC,-0.552

# Study 3
# Target: Histone acetyltransferase KAT6A, winged helix 1, GST fusion (KAT6A, Homo sapiens, UniProt Q92794, residues 1-85)
# Method: protein binding microarray
# Form: double-stranded DNA, one strand shown
# Matrix: in vitro
# Concentration: not given
# Setting: 8-mer, flanks averaged, mean of 2 arrays, mostly near background
# Baseline: not given
# Direction: higher = stronger binding
# Construct (chain): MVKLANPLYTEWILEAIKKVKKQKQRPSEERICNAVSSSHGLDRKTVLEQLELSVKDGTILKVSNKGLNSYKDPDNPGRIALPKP
Oligonucleotide,E-score
GAGATAGA,-0.147
ACTCTGCG,0.0483
TTAACGAA,0.0743
CGAAACTC,-0.155
AGAAAATA,-0.213
GCTGCGAC,0.133
CTTTGGTA,0.0262
CACCACAA,-0.274
CTATCTAC,-0.141
CGCGGGCC,0.434
GGTACATA,0.042
GATTACTA,-0.0301
AGCTTTTG,-0.145
ATATGAGG,-0.182
GCGAGAGC,0.167
GGAGACTA,-0.163
CTAGGCGA,0.0818
AAATCGCA,-0.0628
CTCCGGTA,0.0824
ATCCCCCG,0.24
AGAAACGC,0.149

# Study 4
# Target: RNA binding protein fox-1 homolog 2, RRM domain, GST-SBP tag (RBFOX2, Homo sapiens, UniProt O43251-10, residues 100-194)
# Method: RNA Bind-n-Seq
# Form: RNA
# Matrix: in vitro
# Concentration: 365 nM
# Setting: natural RNA segment, single round, ends assumed
# Baseline: no-protein control
# Direction: higher = stronger binding
# All sequences stand within: GGGAGUUCUACAGUCCGACGAUC … UGGAAUUCUCGGGUGCCAA
# Construct (chain): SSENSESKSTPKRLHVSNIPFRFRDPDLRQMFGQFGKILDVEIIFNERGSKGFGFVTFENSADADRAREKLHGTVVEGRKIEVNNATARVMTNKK
Oligonucleotide,RBNS enrichment (R)
GGGCCACAUGUGUUCACUAUUCAGGCUCCACUGGGGGAAUUUUCCUACCUUUGCUGGCUUGGCUCCUGCUCCCAGGCCAGGGACCUCGGUCUGUCUACUACACACUCUGG,0.327
CUCUUCAGUCUUCCUGUUCACCCCUCCUCCACUCCCUUUAACCGCAAAACUAGGUGCUGUGGCCCCAGACUACCCAUCCUUAAAAUGAUCCUUGCCCAGCGGUGGGAGCU,0.38
CAAUACCAAGUAUAGCCUAUGGCAGAAAAAAUGUCUGUAAAUAUGUUUUUAAAGGUGGAUUUUGUUUAAAAAAUCUUAAUGAAUGAGUCUGUUGUGUGUCAUGCCAGUGA,0.865
CCUGGAACUUGGAAGAGCAGCAGAUGAAGUUGGAAAGAAAAUUCUGCUCUUAUCACCUAAACAGGACAGGAGAGCAGAUGCCCCAGCGCCUCUAGUAGAUGGUAGUGGUG,0.325
GAAAAUGAAACAUUCUUUUUCUGGAGAAGUUUACAUGCCCAUUGUUGGUCACCUCUUUACUGUAAAUACUAUUGAAAAAAGGAGCGUAGCAUUUGCAUAGCAGGGAUUGU,0.448
CUUGUAAAGCGGUGAUACAACUUGUCAAAUAUUUAAUAAAGAAUUACGGAAGCUGGAACAUUUCCUACAUAAGUAUCAUGGGUUGUCUGGCUUAAAGCUUCUUCAGGAAU,0.533
AAGAACUCUUCCCUUCCCUGGUGAGUAUUUCCAUUAUUCCGUUAAGGUUUAAUAUGCAUUCAGAUUACUUUUACUAAAUAGGACACCAUAAAGCUUUUGUUAUAUAUUAA,2.27
AGCCCUCCAGGUCCUCCAGCUCUGUCAGAUGGAGGGCUCUCGGGCCUAGAUCCCACUGGUAGGCCUCGUGGCUGGCAGCAGUGCUCUGGGAAUAAACAGCUGCCCUAGCC,0.549

# Some of these lines once more (study 3):
Oligonucleotide,E-score
AGAAAATA,-0.213
GCTGCGAC,0.133
CTTTGGTA,0.0262
CACCACAA,-0.274
CTATCTAC,-0.141
CGCGGGCC,0.434
GGTACATA,0.042
